# Published values gathered from unrelated publications.
# Compare with care: the assays were run in different laboratories.
Structure (SMILES),tested on,assay,system,setting,how to read,endpoint,result
CC(C)(O/N=C(\C(=O)N[C@@H]1C(=O)N2C(C(=O)[O-])=C(C[n+]3ccccc3)CS[C@H]12)c1csc(N)n1)C(=O)O,Proteus mirabilis,broth microdilution,,18 h,,MIC,0.5 µg/mL
CC(=O)NC[C@H]1CN(c2ccc(N3CCOCC3)c(F)c2)C(=O)O1,Staphylococcus aureus,broth microdilution,vancomycin-resistant VRS4,,,MIC,4 µM
CC1(C)S[C@@H]2[C@H](NC(=O)[C@H](N)c3ccccc3)C(=O)N2[C@H]1C(=O)O,Pseudomonas aeruginosa,,clinical isolate RKI-No_496/15,,,MIC,> 16 µg/mL
CS(=O)(=O)c1ccc([C@@H](O)[C@@H](CF)NC(=O)C(Cl)Cl)cc1,Staphylococcus cohnii,broth microdilution,L5,18 h,,MIC,> 128 µg/mL
N=C(N)c1ccc(OCc2ccc(-c3ccccc3)cc2COc2ccc(C(=N)N)cc2)cc1,Escherichia coli,,BW25113,compound alone,,MIC,> 200 µg/mL
CC(=O)NCCCC[C@H](N)C(=O)O,,"binding, equilibrium dialysis LC-MS",,"5 µM, thermostabilized A2AR-BRIL construct","relative to: no-protein control, direction not given",z-scored log2 fold change,0.14
CCCCCCCCCC(=O)N[C@@H](Cc1c[nH]c2ccccc12)C(=O)N[C@H](CC(N)=O)C(=O)N[C@@H](CC(=O)O)C(=O)N[C@@H]1C(=O)NCC(=O)N[C@@H](CCCN)C(=O)N[C@@H](CC(=O)O)C(=O)N[C@H](C)C(=O)N[C@@H](CC(=O)O)C(=O)NCC(=O)N[C@H](CO)C(=O)N[C@@H]([C@H](C)CC(=O)O)C(=O)N[C@@H](CC(=O)c2ccccc2N)C(=O)O[C@@H]1C,Staphylococcus aureus,,SH1000,"with: sphingomyelin, molar ratio 2",,MIC,1 µg/mL
C[C@H]1[C@H](NC(=O)/C(=N\OC(C)(C)C(=O)O)c2csc(N)n2)C(=O)N1S(=O)(=O)O,Proteus mirabilis,broth microdilution,,18 h,,MIC,2 µg/mL
CC[C@H]1OC(=O)[C@H](C)[C@@H](O[C@H]2C[C@@](C)(OC)[C@@H](O)[C@H](C)O2)[C@H](C)[C@@H](O[C@@H]2O[C@H](C)C[C@H](N(C)C)[C@H]2O)[C@](C)(O)C[C@@H](C)C(=O)[C@H](C)[C@@H](O)[C@]1(C)O,Staphylococcus cohnii,broth microdilution,L5,18 h,,MIC,> 128 µg/mL
C[C@H]1COc2c(N3CCN(C)CC3)c(F)cc3c(=O)c(C(=O)O)cn1c23,Proteus mirabilis,agar dilution,ATCC 49565 susceptible,,,MIC,≤ 0.03 µg/mL
CC(C)(CO[P@@](=O)(O)O[P@@](=O)(O)OC[C@H]1O[C@@H](n2cnc3c(N)ncnc32)[C@H](O)[C@@H]1OP(=O)(O)O)[C@@H](O)C(=O)NCCC(=O)NCCSC(=O)CC(=O)O,,"binding, equilibrium dialysis LC-MS",,"5 µM, thermostabilized A2AR-BRIL construct","relative to: no-protein control, direction not given",z-scored log2 fold change,0.0788
CC1(C)SC2C(NC(=O)C(NC(=O)C3=C(O)C(Cc4ccsc4)NC3=O)c3ccccc3)C(=O)N2C1C(=O)O (stereo not drawn),Escherichia coli,broth microdilution,ATCC 25922 wild type,no clavulanic acid,,MIC,12.5 µg/mL
CNC(C)C1CCC(N)C(OC2C(N)CC(N)C(OC3OCC(C)(O)C(NC)C3O)C2O)O1 (stereo not drawn),Salmonella enterica serovar Choleraesuis,broth microdilution,clinical isolate RKI-No 532/14-1,,,MIC,4 µg/mL
CO/N=C(\C(=O)N[C@@H]1C(=O)N2C(C(=O)O)=C(CSc3nc(=O)c(O)nn3C)CS[C@H]12)c1csc(N)n1,Proteus mirabilis,broth microdilution,,18 h,,MIC,0.5 µg/mL
CC(=O)NC[C@H]1CN(c2ccc(N3CCOCC3)c(F)c2)C(=O)O1,Staphylococcus cohnii,broth microdilution,L5,18 h,,MIC,> 128 µg/mL

# Repeated from above:
Structure (SMILES),tested on,assay,system,setting,how to read,endpoint,result
CCCCCCCCCC(=O)N[C@@H](Cc1c[nH]c2ccccc12)C(=O)N[C@H](CC(N)=O)C(=O)N[C@@H](CC(=O)O)C(=O)N[C@@H]1C(=O)NCC(=O)N[C@@H](CCCN)C(=O)N[C@@H](CC(=O)O)C(=O)N[C@H](C)C(=O)N[C@@H](CC(=O)O)C(=O)NCC(=O)N[C@H](CO)C(=O)N[C@@H]([C@H](C)CC(=O)O)C(=O)N[C@@H](CC(=O)c2ccccc2N)C(=O)O[C@@H]1C,Staphylococcus aureus,,SH1000,"with: sphingomyelin, molar ratio 2",,MIC,1 µg/mL
C[C@H]1[C@H](NC(=O)/C(=N\OC(C)(C)C(=O)O)c2csc(N)n2)C(=O)N1S(=O)(=O)O,Proteus mirabilis,broth microdilution,,18 h,,MIC,2 µg/mL
